Published values from different studies.
Numbered parts are unrelated; each lists some results of a single study.

Sample 1
Target: Histone acetyltransferase KAT6A, both winged helices, GST fusion (KAT6A, Homo sapiens, UniProt Q92794, residues 1-181)
Technique: protein binding microarray
Form: double-stranded DNA, one strand shown
Sample: in vitro
Concentration: not given
Notes: 8-mer, flanks averaged, mean of 2 arrays, mostly near background
Reference: not given
Direction: higher = stronger binding
Quantity: E-score
Residues (chain): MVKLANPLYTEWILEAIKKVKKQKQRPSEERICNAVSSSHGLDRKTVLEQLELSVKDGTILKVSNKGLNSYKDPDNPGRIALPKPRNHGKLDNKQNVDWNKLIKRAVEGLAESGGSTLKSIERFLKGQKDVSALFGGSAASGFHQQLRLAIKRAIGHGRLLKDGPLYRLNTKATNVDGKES
Oligonucleotide = GACTAGCC; value = -0.024
Oligonucleotide = CAAGAGCA; value = -0.207
Oligonucleotide = ATTTGAGC; value = -0.136
Oligonucleotide = ACTGAGTG; value = -0.159
Oligonucleotide = CTCAACGC; value = 0.128
Oligonucleotide = CGAGCCTC; value = 0.0113
Oligonucleotide = GGCTGTCA; value = 0.0129
Oligonucleotide = CTATTGAA; value = -0.081
Oligonucleotide = CGAAAACG; value = 0.175
Oligonucleotide = ATAACACC; value = -0.014
Oligonucleotide = CTCGTCCC; value = -0.0587
Oligonucleotide = ACTTCATA; value = -0.024
Oligonucleotide = ACTTTTCA; value = -0.138
Oligonucleotide = CATGGTTC; value = 0.0627
Oligonucleotide = TCCATGAA; value = -0.062
Oligonucleotide = CAGAGTGC; value = -0.124
Oligonucleotide = GAAACGTC; value = -0.0192
Oligonucleotide = AGACTAGA; value = -0.17
Oligonucleotide = AATCTTGG; value = -0.25
Oligonucleotide = ATCGCAGG; value = -0.125
Oligonucleotide = GCCCATCC; value = -0.129
Oligonucleotide = ATGAGCCC; value = -0.0496

Sample 2
Target: Centromere-binding protein 1, full length, N-terminal tag (CBF1, Saccharomyces cerevisiae, UniProt P17106, residues 1-351)
UniProt P17106, sequence (whole entry, looked up): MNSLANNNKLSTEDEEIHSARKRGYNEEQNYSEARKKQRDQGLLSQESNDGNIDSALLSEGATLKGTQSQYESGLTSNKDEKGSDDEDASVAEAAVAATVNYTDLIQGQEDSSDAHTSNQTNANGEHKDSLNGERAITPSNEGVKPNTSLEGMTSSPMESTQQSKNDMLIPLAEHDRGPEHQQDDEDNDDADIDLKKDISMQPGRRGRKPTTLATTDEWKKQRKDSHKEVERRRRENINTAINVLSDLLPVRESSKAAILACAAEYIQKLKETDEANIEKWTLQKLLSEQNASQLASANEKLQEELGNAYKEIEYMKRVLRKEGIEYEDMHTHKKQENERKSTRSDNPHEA
Technique: protein-binding microarray
Form: double-stranded DNA, one strand shown
Sample: in vitro
Concentration: 0.8 µM
Notes: whole 60-bp probe, no competitor
Direction: higher = stronger binding
Quantity: fluorescence intensity
All sequences stand within: … GTCTTGATTCGCTTGACGCTGCTG
Oligonucleotide = GAAAATTTTGATTACCATCAGCAAATGGATTTTTAG; value = 530 a.u.
Oligonucleotide = GAAAGGAAGAGATACCTCACGTCTGTAATATCTTAG; value = 511 a.u.
Oligonucleotide = GAACCCGCTTCACGGCACATGCATGCATCAATGTAG; value = 723 a.u.
Oligonucleotide = CCTAACTACTATATCCACCTGCTATAGCTTCGTACA; value = 540 a.u.
Oligonucleotide = GAAATAGTAGCGTTTCCCGTGTTCTTTTCCCGTTAG; value = 565 a.u.
Oligonucleotide = CTACTGTAAATGCCGCAGATCACGTGGTAAAGATTC; value = 17100 a.u.
Oligonucleotide = GAAGAAATGACGTGCCAGGTGATTTTTCCATTCTAG; value = 617 a.u.
Oligonucleotide = CTAAGGATTCCCCGTGACGAAAACAGCCTTCAGTTC; value = 1390 a.u.
Oligonucleotide = CCTAACTACTATATTGAGGTGACATAGCTTCGTACA; value = 556 a.u.
Oligonucleotide = CTACCAACCATATTACAAGTCACAAATTGGTAATTC; value = 564 a.u.
Oligonucleotide = GAAATATTTTACGAGCACGCTAACACAATGCTTTAG; value = 573 a.u.
Oligonucleotide = GAATGAATTGTGTTGCACGTGACTAAACATTGTTAG; value = 27200 a.u.
Oligonucleotide = GAAGACAGCTCAGGTCCAGTCACGTTAAAGTGGTAG; value = 902 a.u.
Oligonucleotide = GAAGGGTTGTACTATCAGCAGAAAAAAGTAATTTAG; value = 537 a.u.
Oligonucleotide = GAATGTGCGACGATTCATGTGTGTTAGATTGGGTAG; value = 572 a.u.
Oligonucleotide = GAAGAGCGCGCTGGGCATGTGCAATTCACATTTTAG; value = 621 a.u.
Oligonucleotide = CCTAACTACTATAGTCACGCATAATAGCTTCGTACA; value = 650 a.u.
Oligonucleotide = CTATTATAATGAAACCACGTGAGCACGATGAAATTC; value = 7320 a.u.
Oligonucleotide = GAATGTGTGCCGGGTCATGAGATGCCAAACTAATAG; value = 663 a.u.
Oligonucleotide = GAAACGAAGCCTTTGCACCTGATATAAAAAGTGTAG; value = 1130 a.u.
Oligonucleotide = GAACAGAAGGGTGATCAGTTGAGGTGGAGAGTTTAG; value = 585 a.u.
Oligonucleotide = CCTAACTACTATAGTCACACGTGATAGCTTCGTACA; value = 6830 a.u.
Oligonucleotide = CCTAACTACTATAGTGTGGTGATATAGCTTCGTACA; value = 506 a.u.
Oligonucleotide = GAACCGTTACATTTGCACGTTCAGCGTAATGAGTAG; value = 674 a.u.
Oligonucleotide = TGTACGAAGCTATCGCACGTAATTATAGTAGTTAGG; value = 502 a.u.

Sample 3
Target: RNA binding protein fox-1 homolog 2, RRM domain, GST-SBP tag (RBFOX2, Homo sapiens, UniProt O43251-10, residues 100-194)
Technique: RNA Bind-n-Seq
Form: RNA
Sample: in vitro
Concentration: 365 nM
Notes: natural RNA segment, single round, ends assumed
Reference: no-protein control
Direction: higher = stronger binding
Quantity: RBNS enrichment (R)
All sequences stand within: GGGAGUUCUACAGUCCGACGAUC … UGGAAUUCUCGGGUGCCAA
Residues (chain): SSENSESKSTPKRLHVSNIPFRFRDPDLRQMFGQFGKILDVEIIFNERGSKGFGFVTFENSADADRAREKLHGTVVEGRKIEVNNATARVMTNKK
Oligonucleotide = AAAAUAAAAAGUUUGUCCUGAACCUUUUACAGAUUUGCCAUAACAGCAUUAAAGUGAUUGAACAGAAGCGGAAGUGUCCGGGGAUGUUUCUGUCCCCCUCGGCAGAGGCU; value = 0.487
Oligonucleotide = CUACCUCUCCCCUCAUCAGAUCAGCUAAGCUGUGAGGUUCUAAGAGGUCUAGGUGUGUUUAAAUUUCUGAAGAUCAUUUUUCAUUAUAACAUUCAGGCCAGACACUUGAA; value = 0.443
Oligonucleotide = AGUCACCUUGACAGUUCUUUGCACACAAGUUUUACACCUCUCUGGAUUCGAAGUUUGUAUUGUAUUCAUAGUUAAAGGGAAUCGGGUACUUUGCUUGUUGAAUAAUGCAC; value = 1.43
Oligonucleotide = AGGAGACUGAGGCAAGAGCCUCGUAGCAUUAGCUGCAUAGCAAGUUUGAAACCAGUCUGCACUACAUGAGGCUUUGUCUCAAAAUGAAAAAGUUUGAGAUUAUCCUAGGC; value = 0.959
Oligonucleotide = CUCUGCUCCUUCCUCCUUCAGUGCAGCCCCUCUUGGGUGGUUUAUUGGGCAGGAGGCCACCAUCAUUUCUCCUCAGAAGCAAACCUCAGUGCCUGAGACUUUCCUGCCAC; value = 0.51
Oligonucleotide = UUGGAGCUUCUCAAGUUUGAGGAUGAGGAAGCUCAGGCAGUGUAUUGGCACUCUAGUGCUCACAUAAUGGGUGAAGCCAUGGAAAGAGUCUAUGGUGGAUGUUUAUGCUA; value = 0.609
Oligonucleotide = CUAGUAUCAGGGUGGGUGAUAGAACCCGAAAUGGAAGAGGACGGGAAAGUGCCUGGGCUGUGCUUGUGACCGGCAGUACAGUGCCAUCCUGGAGGUGACUGGAGUAGCUG; value = 1.32
Oligonucleotide = UAGUAACUUGGAAAAGACCAAAAAAGGGAGUGGAACAAAGGAACCGCCAUUAGACUGAAAAAACAAUGGCCUGAUGGUUGAAGUACAUUUUCAUUUGCAGAAUAUUAAAG; value = 0.606
Oligonucleotide = CACGGAGGGCCGCCCGCCACGCCCCGCGCUCAACUGCUCCCGUGGAAGAUUAAAGGGCUGAAUCAUGGUGCUGACCUGGCUCUUUGUGCUGCAUGCCUAGGGGCAGGGUU; value = 3.56
Oligonucleotide = CCCCUACACCUUCUGGGCUGAAGAUCACCCAGCUGUGUUCAGAAUUUUCUUACUGUGCUUAGGACUGCACGCAAGUGAGCAGACACCACCGACUUCCUUUCUGCGUCACC; value = 0.956
Oligonucleotide = UCUUGUUUUAUAAAUUUCACUGUUGUUUCUAUAUUAGCAAUUAAUAUUAAAAUAUAUUUUAUAUUUUAUUCAUUAAUAUAACAACAAUCCUAUCAGGAAAAGUUUCUAGA; value = 1.95
Oligonucleotide = CUAUCCUUUAUGCAGUAUACAAGGAGAACUGUCCUGUAGGAUAUUCUCUUCCUGAUGGUGCAGAACCCAGAAUUAGAAGUUUGUGGUUACAGCAUACUCUGUCCUUCAGA; value = 0.287

Sample 4
Target: Interferon regulatory factor 7, full length, phosphomimetic (IRF7, Homo sapiens, UniProt Q92985, residues 1-503, S101K/S471D/S472D/S475D/S476D/S477D/S483D/S484D/S487D)
UniProt Q92985, sequence (whole entry, unmodified, looked up): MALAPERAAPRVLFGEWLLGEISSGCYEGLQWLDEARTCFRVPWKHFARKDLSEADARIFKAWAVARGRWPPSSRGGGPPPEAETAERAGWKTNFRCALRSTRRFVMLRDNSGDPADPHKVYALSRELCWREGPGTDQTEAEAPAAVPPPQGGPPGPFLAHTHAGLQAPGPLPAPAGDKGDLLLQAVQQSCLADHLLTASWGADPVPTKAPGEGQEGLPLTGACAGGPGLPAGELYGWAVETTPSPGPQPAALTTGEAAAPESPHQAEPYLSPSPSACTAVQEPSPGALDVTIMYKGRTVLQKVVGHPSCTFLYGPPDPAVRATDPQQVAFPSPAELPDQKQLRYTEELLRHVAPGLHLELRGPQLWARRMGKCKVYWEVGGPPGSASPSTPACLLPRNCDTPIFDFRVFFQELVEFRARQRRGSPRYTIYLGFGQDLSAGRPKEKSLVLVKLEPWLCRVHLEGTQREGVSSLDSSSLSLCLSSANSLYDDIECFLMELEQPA
Technique: protein-binding microarray
Form: double-stranded DNA, one strand shown
Sample: in vitro
Concentration: 250 nM
Notes: 60-bp whole probe
Added: salmon DNA 0.4 mg/ml
Reference: random background probes
Direction: higher = stronger binding
Quantity: log fluorescence
All sequences stand within: GCCTAGCAC … GTCTTGATTCGCTTGACGCTGCTG
Oligonucleotide = TCATATATGTGATTAAAACTGTGCTAG; value = 1.25 z-score
Oligonucleotide = TTAGAACTGAGACTGGATTCGTGCTAG; value = 0.275 z-score
Oligonucleotide = GACTGACTGGGGTATCGGGACGTGCTA; value = -0.386 z-score
Oligonucleotide = GAAGGTATCCTACTGCTGACGTGCTAG; value = -0.274 z-score
Oligonucleotide = TTAGGTTTCGGTATCGGTTGGTGCTAG; value = 10.3 z-score
Oligonucleotide = GACGATTTCAGTACCGAGACGTGCTAG; value = 0.213 z-score
Oligonucleotide = TCATCGTAAGCAAAAATACTGTGCTAG; value = 0.181 z-score
Oligonucleotide = GCCGGTTTCGACTATCGGGACGTGCTA; value = 6.64 z-score
Oligonucleotide = CATTCTCTGTTTATGTCTGGGTGCTAG; value = 4.91 z-score
Oligonucleotide = TCACATTTTGTTTTTCAACTGTGCTAG; value = 1.17 z-score
Oligonucleotide = TTAGGTATCCTTATCCTTTTGTGCTAG; value = 0.292 z-score
Oligonucleotide = GATGATATCGGGACTGGAGACGTGCTA; value = -0.428 z-score
Oligonucleotide = GACCTCGTCTCTATCAAAAAGTGCTAG; value = 0.984 z-score
Oligonucleotide = GCACGGCTCGTTATCCTATAGTGCTAG; value = 0.496 z-score
Oligonucleotide = GACGGACTGCCACTGCTGACGTGCTAG; value = -0.817 z-score
Oligonucleotide = TCAGTTTTCATTTTATGACTGTGCTAG; value = 3.82 z-score
Oligonucleotide = TCATCTTCCTTCATGGCACTGTGCTAG; value = 1.13 z-score
Oligonucleotide = GACGATCTCATTATCGAGACGTGCTAG; value = -0.0215 z-score
Oligonucleotide = CCAACTCTGTTTTCGCTTTCTGTGCTA; value = 4.22 z-score
Oligonucleotide = TTAGGTATGGGTTTCGGTTAGTGCTAG; value = 6.12 z-score
Oligonucleotide = GACGGGCTGGACTTTCGGGACGTGCTA; value = -0.796 z-score
Oligonucleotide = GAGGGTATCCTTATCCTGACGTGCTAG; value = -0.161 z-score
Oligonucleotide = GTGGTTTTCATTATTGCTTCGTGCTAG; value = 1.04 z-score
Oligonucleotide = GACGAACTGAGTTTCGCGACGTGCTAG; value = 0.952 z-score
Oligonucleotide = TTAGATATCGGGACTGTATTAGTGCTA; value = 0.292 z-score

For quick reference, copied from above (sample 2):
Oligonucleotide = GAAACGAAGCCTTTGCACCTGATATAAAAAGTGTAG; value = 1130 a.u.
Oligonucleotide = GAAGACAGCTCAGGTCCAGTCACGTTAAAGTGGTAG; value = 902 a.u.
Oligonucleotide = GAAGGGTTGTACTATCAGCAGAAAAAAGTAATTTAG; value = 537 a.u.
Oligonucleotide = GAAATATTTTACGAGCACGCTAACACAATGCTTTAG; value = 573 a.u.
Oligonucleotide = GAACCCGCTTCACGGCACATGCATGCATCAATGTAG; value = 723 a.u.
Oligonucleotide = GAAATAGTAGCGTTTCCCGTGTTCTTTTCCCGTTAG; value = 565 a.u.
Oligonucleotide = CTAAGGATTCCCCGTGACGAAAACAGCCTTCAGTTC; value = 1390 a.u.
Oligonucleotide = GAATGTGCGACGATTCATGTGTGTTAGATTGGGTAG; value = 572 a.u.
